{"data": "Measurements of several laboratories", "note": "Values joined by “and” are separate records of one study, mostly repeats; a detail may differ."}
{"Structure (SMILES)": "COc1ncccc1-c1cnn2ccc(N3CCN(C(=O)OC(C)C)CC3)nc12", "system": "mouse nerve ligation model, brain", "conditions": "oral, 10 mg/kg, 30 min after last dose, repeat dosing day 3", "endpoint": "drug concentration", "result": "9.9 µM"}
{"Structure (SMILES)": "CO[C@H]1C[C@@H]2CC[C@@H](C)[C@@](O)(O2)C(=O)C(=O)N2CCCC[C@H]2C(=O)O[C@H]([C@H](C)C[C@@H]2CC[C@@H](OC(=O)NCCOCCOCCOCCOCCOCCOCCOCCOCCC(=O)N3CCc4cc(Cn5nc(-c6ccc7oc(N)nc7c6)c6c(N)ncnc65)ccc4C3)[C@H](OC)C2)C[C@@H](O)[C@H](C)/C=C(\\C)[C@@H](O)[C@@H](OC)C(=O)[C@H](C)C[C@H](C)/C=C/C=C/C=C/1C", "system": "patients with advanced solid tumours", "conditions": "intravenous, 1.6 mg/3 mg weekly, any grade", "endpoint": "incidence of Mucositis TRAE", "result": "20%"}
{"Structure (SMILES)": "O=c1ccc2ncc(=O)n3c2n1C[C@H]3CN1CCC(NCc2cc3c(cn2)OCCC3)CC1", "system": "healthy human volunteers, urine", "conditions": "oral, dose not given, 24 h postdose, with: rifampicin", "endpoint": "urine concentration", "result": "> 4 µg/mL"}
{"Structure (SMILES)": "COc1ccc(-c2c(-c3ccc(C#N)c(F)c3)nc(N3CCC(N)CC3)n(C)c2=O)cc1F", "assay": "refers to: Constipation", "system": "human patients", "conditions": "oral, dose not given, any grade, dose escalation, NG", "endpoint": "treatment-related adverse event incidence", "result": "4%"}
{"Structure (SMILES)": "CCN1[C@@H](C(=O)NC23CCC(C(=O)O)(CC2)CC3)[C@H](c2cccc(Cl)c2F)[C@]2(C(=O)Nc3cc(Cl)ccc32)C12CCCCC2", "system": "patients with advanced solid tumours", "conditions": "oral, 100 mg", "endpoint": "AST elevation incidence", "result": "0%"}
{"Structure (SMILES)": "C=CC(=O)Nc1cc(Nc2nccc(Nc3cc(Cl)c(F)cc3C(C)(C)O)n2)c(OC)cc1N1CC[C@@H](N(C)C)C1", "assay": "treatment-emergent adverse events", "system": "human", "conditions": "oral, 300 mg, phase I clinical trial", "endpoint": "incidence of blood creatinine increased", "result": "17.6%"}
{"Structure (SMILES)": "CC[C@H](C)[C@H](NC(=O)[C@H](Cc1ccccc1)NC(=O)[C@H](CCC(=O)O)NC(=O)[C@H](CCCNC(=N)N)NC(=O)[C@H](C)NC(=O)[C@H](C)NC(=O)[C@H](CCC(N)=O)NC(=O)[C@H](CCC(=O)O)NC(=O)[C@H](CCC(=O)O)NC(=O)[C@H](CC(C)C)NC(=O)[C@H](Cc1ccc(O)cc1)NC(=O)[C@H](CO)NC(=O)[C@H](CO)NC(=O)[C@@H](NC(=O)[C@H](CC(=O)O)NC(=O)[C@H](CO)NC(=O)[C@@H](NC(=O)[C@H](Cc1ccccc1)NC(=O)[C@@H](NC(=O)CNC(=O)[C@H](CCC(=O)O)NC(=O)[C@H](C)NC(=O)CCc1cnc[nH]1)[C@@H](C)O)[C@@H](C)O)C(C)C)C(=O)N[C@@H](C)C(=O)N[C@@H](Cc1c[nH]c2ccccc12)C(=O)N[C@@H](CC(C)C)C(=O)N[C@H](C(=O)N[C@@H](CCCNC(=N)N)C(=O)NCC(=O)N[C@@H](CCCNC(=N)N)C(=O)N[C@@H](CCCCNC(=O)COCCOCCNC(=O)COCCOCCNC(=O)CC[C@H](NC(=O)CCCCCCCCCCCCCCCCC(=O)O)C(=O)O)C(=O)NCC(=O)NCC(=O)N[C@@H](CO)C(=O)N[C@@H](CCCCNC(=O)[C@H](CCCCNC(=O)[C@H](CCCCNc1c(NCCCCCN(O)C(=O)CCC(=O)NCCCCCN(O)C(=O)CCC(=O)NCCCCCN(O)C(C)=O)c(=O)c1=O)Nc1c(NCCCCCN(O)C(=O)CCC(=O)NCCCCCN(O)C(=O)CCC(=O)NCCCCCN(O)C(C)=O)c(=O)c1=O)NC(=O)[C@H](CCCCNc1c(NCCCCCN(O)C(=O)CCC(=O)NCCCCCN(O)C(=O)CCC(=O)NCCCCCN(O)C(C)=O)c(=O)c1=O)Nc1c(NCCCCCN(O)C(=O)CCC(=O)NCCCCCN(O)C(=O)CCC(=O)NCCCCCN(O)C(C)=O)c(=O)c1=O)C(=O)O)C(C)C [zirconium-89 labelled]", "assay": "ex vivo gamma counting", "system": "Sprague-Dawley rat, male, duodenum", "conditions": "intravenous, 1 nmol, 24 h", "endpoint": "tissue uptake", "result": "0.385 %ID/g and 0.382 %ID/g and 0.369 %ID/g and 0.283 %ID/g and 0.332 %ID/g"}
{"Structure (SMILES)": "CC(C)C[C@H](NC(=O)[C@H](CCCCN)NC(=O)OCC1c2ccccc2-c2ccccc21)C(=O)N[C@H](C(=O)N[C@@H](Cc1ccccc1)C(=O)N[C@@H](Cc1ccccc1)C(=O)N[C@@H](CCCCN)C(=O)NCC(=O)N[C@@H](Cc1ccccc1)C(=O)N[C@@H](C)C(=O)N[C@@H](Cc1c[nH]c2ccccc12)C(=O)N[C@@H](CC(N)=O)C(=O)N[C@H](C(=O)N[C@H]1CSSC[C@@H](C(=O)N[C@@H](Cc2c[nH]cn2)C(=O)N[C@@H](CCCNC(=N)N)C(=O)N[C@@H](CCCNC(=N)N)C(=O)N[C@@H](C)C(=O)N[C@@H](CC(N)=O)C(N)=O)NC(=O)[C@H](C(C)C)NC(=O)[C@H](CCCNC(=N)N)NC(=O)[C@H](C(C)C)NC(=O)CNC(=O)[C@H](CC(N)=O)NC(=O)[C@H](CCCNC(=N)N)NC(=O)[C@H](Cc2ccc(O)cc2)NC(=O)[C@H](C(C)C)NC1=O)C(C)C)C(C)C", "system": "ICR mouse", "conditions": "ip, 5 mg/kg", "how to read": "direction not given", "endpoint": "spasm score", "result": 0}
{"Structure (SMILES)": "Cn1cncc1-c1c(F)cncc1NC(=O)c1c(N)nn2cc(F)cnc12", "system": "human patients", "conditions": "oral, 80 mg once daily", "endpoint": "grade ≥3 lymphocyte decrease incidence", "result": "0%"}
{"Structure (SMILES)": "CC(C)n1c(C2CCNCC2)nc2c([N+](=O)[O-])c(Br)c(Br)cc21", "assay": "refers to: Asthenia", "system": "AML patients", "conditions": "125 mg", "endpoint": "adverse events causing interruption", "result": "6%"}
{"Structure (SMILES)": "CC[C@H](C)CCCCC(=O)N[C@@H](CCN)C(=O)N[C@H](C(=O)N[C@@H](CCN)C(=O)N[C@H]1CCNC(=O)[C@H]([C@@H](C)O)NC(=O)[C@H](CCN)NC(=O)[C@H](CCN)NC(=O)[C@H](CC(C)C)NC(=O)[C@@H](Cc2ccccc2)NC(=O)[C@H](CCN)NC1=O)[C@@H](C)O", "system": "human, critically ill adults", "conditions": "intravenous, 1.33 to 6.00 mg/kg/d, median at treatment end", "endpoint": "change in serum creatinine", "result": "3.14%"}
{"Structure (SMILES)": "CNC(=O)c1cc(Oc2ccc(NC(=O)Nc3cc(C(C)(C)C)nn3-c3ccc4ncccc4c3)c(F)c2)ccn1", "assay": "NCI CTC v3.0", "system": "human patients", "conditions": "oral, all dose levels", "endpoint": "related SAE", "result": "2%"}
{"Structure (SMILES)": "c1csc(CNc2cc[nH]n2)c1", "assay": "micronucleus", "system": "CD-1 mouse Hsd:ICR(CD-1), female, bone marrow", "conditions": "oral, 250 mg/kg/day, 3 days", "endpoint": "PCE to total erythrocyte ratio", "result": 0.474}
{"Structure (SMILES)": "C[C@]1(CO)Cc2ncn(-c3ccc(C#N)c(Cl)c3)c2C(=O)O1", "system": "human, Chinese, plasma", "conditions": "3 mg single dose, geometric mean", "endpoint": "half-life", "result": "4.4 h"}
{"Structure (SMILES)": "CC[C@H](C)CCCCC(=O)N[C@@H](CCN)C(=O)N[C@H](C(=O)N[C@@H](CCN)C(=O)N[C@H]1CCNC(=O)[C@H]([C@@H](C)O)NC(=O)[C@H](CCN)NC(=O)[C@H](CCN)NC(=O)[C@H](CC(C)C)NC(=O)[C@@H](Cc2ccccc2)NC(=O)[C@H](CCN)NC1=O)[C@@H](C)O", "system": "critically ill patients, plasma", "conditions": "dose not given, median, before fifth dose", "endpoint": "Cmin at steady state", "result": "1400 ng/mL"}
{"Structure (SMILES)": "CCc1ccc(CC/C=C/c2ccc3c(c2)C(=O)CC3)cc1", "system": "Sprague-Dawley rat, male", "conditions": "oral, 30 mg/kg/day, 14 days", "endpoint": "Globulin", "result": "21.1 g/L"}
{"Structure (SMILES)": "C[C@H]1COCCN1c1nc(NCc2cccnc2C(F)(F)F)c2cccnc2n1", "system": "anaesthetized rat", "conditions": "intravenous, 3 mg/kg", "how to read": "reference: control", "endpoint": "PR change", "result": "5.5%"}
{"Structure (SMILES)": "CCN1CCN(Cc2ccc(Nc3ncc(F)c(-c4cc(F)c5nc6n(c5c4)[C@H](C)CCC6)n3)nc2)CC1", "assay": "Phase Ia dose escalation", "system": "patients with advanced solid tumours", "conditions": "dose not given, monotherapy, any grade TEAE", "endpoint": "blood creatinine increased incidence", "result": "75%"}
{"Structure (SMILES)": "O=C(Nc1ccccc1)C1CCN(C(=O)Oc2cccnc2)CC1", "assay": "adverse event reporting", "system": "healthy women", "conditions": "oral, 100 mg, 9 days", "endpoint": "subjects with affect lability", "result": "0%"}
{"Structure (SMILES)": "CN1CC[C@@H](c2c(O)cc(O)c3c(=O)cc(-c4ccc(C(F)(F)F)cc4Cl)oc23)[C@@H]1CO", "assay": "refers to: Pneumonia", "system": "relapsed B-cell malignancies", "conditions": "oral, 150 mg, grade 3-4, intermittent dosing", "endpoint": "patients with adverse event", "result": "0%"}
{"Structure (SMILES)": "COc1cc2c(Oc3ccc4[nH]c(C)cc4c3F)ccnc2cc1OCC1(N)CC1", "system": "paediatric recurrent refractory sarcoma", "conditions": "8 mg/kg", "endpoint": "grade 3 Proteinuria", "result": "0%"}
{"Structure (SMILES)": "O=c1ccc2cc3ccoc3cc2o1", "system": "rat plasma", "conditions": "8 ng/mL, 2 weeks, -70 °C, post-preparative stability", "endpoint": "accuracy", "result": "93.7%"}
{"Structure (SMILES)": "N[C@@H]1c2ccccc2OC12CCN(c1cnc3c(N4CCCc5ncccc54)n[nH]c3n1)CC2", "system": "advanced solid tumour patients", "conditions": "oral, 150 mg once daily", "endpoint": "serious TEAE grade ≥3", "result": "75%"}
{"Structure (SMILES)": "[O-][S+]1CCc2nc(N3CCC(c4ncc(Cl)cn4)CC3)nc(NC3(CO)CCC3)c21 (centres unmarked)", "assay": "phase I trial, refers to: nervous system disorders", "system": "healthy male volunteers", "conditions": "dose not given, single rising dose, all cohorts", "endpoint": "subjects with adverse events", "result": "41.7%"}
{"Structure (SMILES)": "O=C(c1ccc(F)c(F)c1Nc1ccc(I)cc1F)N1CC(O)([C@@H]2CCCCN2)C1", "system": "patients aged 6 to sample A years", "conditions": "oral, dose not given", "endpoint": "serious adverse events", "result": "29%"}
{"Structure (SMILES)": "CCCCCOc1ccc(-c2ccc(-c3ccc(C(=O)N[C@H]4C[C@@H](O)[C@@H](OCC[N+](C)(C)C)NC(=O)[C@@H]5[C@@H](O)[C@@H](C)CN5C(=O)[C@H]([C@@H](C)O)NC(=O)[C@H]([C@H](O)[C@@H](O)c5ccc(O)cc5)NC(=O)[C@@H]5C[C@@H](O)CN5C(=O)[C@H]([C@@H](C)O)NC4=O)cc3)cc2)cc1", "system": "adult ICU patients, mITT, serum", "conditions": "dose not given, day 30", "endpoint": "potassium", "result": "4.2 mmol/L"}
{"note": "A few entries again:"}
{"Structure (SMILES)": "c1csc(CNc2cc[nH]n2)c1", "assay": "micronucleus", "system": "CD-1 mouse Hsd:ICR(CD-1), female, bone marrow", "conditions": "oral, 250 mg/kg/day, 3 days", "endpoint": "PCE to total erythrocyte ratio", "result": 0.474}
{"Structure (SMILES)": "C[C@]1(CO)Cc2ncn(-c3ccc(C#N)c(Cl)c3)c2C(=O)O1", "system": "human, Chinese, plasma", "conditions": "3 mg single dose, geometric mean", "endpoint": "half-life", "result": "4.4 h"}
{"Structure (SMILES)": "CC[C@H](C)CCCCC(=O)N[C@@H](CCN)C(=O)N[C@H](C(=O)N[C@@H](CCN)C(=O)N[C@H]1CCNC(=O)[C@H]([C@@H](C)O)NC(=O)[C@H](CCN)NC(=O)[C@H](CCN)NC(=O)[C@H](CC(C)C)NC(=O)[C@@H](Cc2ccccc2)NC(=O)[C@H](CCN)NC1=O)[C@@H](C)O", "system": "critically ill patients, plasma", "conditions": "dose not given, median, before fifth dose", "endpoint": "Cmin at steady state", "result": "1400 ng/mL"}
{"Structure (SMILES)": "CCc1ccc(CC/C=C/c2ccc3c(c2)C(=O)CC3)cc1", "system": "Sprague-Dawley rat, male", "conditions": "oral, 30 mg/kg/day, 14 days", "endpoint": "Globulin", "result": "21.1 g/L"}
